# Published values pooled from the literature.
# Each line is one published result; not all experiments were run side by side. Numbers after ± are the reported error.
# FGFR1: Fibroblast growth factor receptor 1 (FGFR1, Homo sapiens, UniProt P11362)
# Sequence of UniProt P11362 (whole entry, looked up): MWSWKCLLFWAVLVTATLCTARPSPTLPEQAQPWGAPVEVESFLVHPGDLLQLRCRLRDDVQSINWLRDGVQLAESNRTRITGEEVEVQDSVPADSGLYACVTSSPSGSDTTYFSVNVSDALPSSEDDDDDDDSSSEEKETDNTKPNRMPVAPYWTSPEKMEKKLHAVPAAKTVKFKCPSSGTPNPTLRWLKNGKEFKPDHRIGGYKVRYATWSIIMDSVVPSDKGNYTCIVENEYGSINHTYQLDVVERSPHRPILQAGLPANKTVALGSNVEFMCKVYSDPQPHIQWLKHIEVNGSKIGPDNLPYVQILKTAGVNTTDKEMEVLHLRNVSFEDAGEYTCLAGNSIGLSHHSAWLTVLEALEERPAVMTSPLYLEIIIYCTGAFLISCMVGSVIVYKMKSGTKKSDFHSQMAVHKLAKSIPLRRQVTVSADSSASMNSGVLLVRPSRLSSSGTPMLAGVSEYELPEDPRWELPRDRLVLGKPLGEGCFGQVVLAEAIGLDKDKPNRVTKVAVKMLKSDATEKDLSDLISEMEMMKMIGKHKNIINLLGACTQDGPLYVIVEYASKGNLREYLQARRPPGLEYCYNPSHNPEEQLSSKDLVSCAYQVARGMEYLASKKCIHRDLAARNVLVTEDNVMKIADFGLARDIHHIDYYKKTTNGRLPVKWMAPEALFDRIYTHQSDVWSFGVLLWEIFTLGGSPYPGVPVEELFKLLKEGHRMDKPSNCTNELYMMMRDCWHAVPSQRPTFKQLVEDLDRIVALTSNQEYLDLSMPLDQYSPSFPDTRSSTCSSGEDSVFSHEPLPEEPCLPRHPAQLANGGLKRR
# MEP cytidylyltransferase IspD: MEP cytidylyltransferase IspD (Plasmodium falciparum, UniProt Q8I273)
# Grm5: Metabotropic glutamate receptor 5 (Grm5, Rattus norvegicus, UniProt P31424)
# Sequence of UniProt P31424 (whole entry, looked up): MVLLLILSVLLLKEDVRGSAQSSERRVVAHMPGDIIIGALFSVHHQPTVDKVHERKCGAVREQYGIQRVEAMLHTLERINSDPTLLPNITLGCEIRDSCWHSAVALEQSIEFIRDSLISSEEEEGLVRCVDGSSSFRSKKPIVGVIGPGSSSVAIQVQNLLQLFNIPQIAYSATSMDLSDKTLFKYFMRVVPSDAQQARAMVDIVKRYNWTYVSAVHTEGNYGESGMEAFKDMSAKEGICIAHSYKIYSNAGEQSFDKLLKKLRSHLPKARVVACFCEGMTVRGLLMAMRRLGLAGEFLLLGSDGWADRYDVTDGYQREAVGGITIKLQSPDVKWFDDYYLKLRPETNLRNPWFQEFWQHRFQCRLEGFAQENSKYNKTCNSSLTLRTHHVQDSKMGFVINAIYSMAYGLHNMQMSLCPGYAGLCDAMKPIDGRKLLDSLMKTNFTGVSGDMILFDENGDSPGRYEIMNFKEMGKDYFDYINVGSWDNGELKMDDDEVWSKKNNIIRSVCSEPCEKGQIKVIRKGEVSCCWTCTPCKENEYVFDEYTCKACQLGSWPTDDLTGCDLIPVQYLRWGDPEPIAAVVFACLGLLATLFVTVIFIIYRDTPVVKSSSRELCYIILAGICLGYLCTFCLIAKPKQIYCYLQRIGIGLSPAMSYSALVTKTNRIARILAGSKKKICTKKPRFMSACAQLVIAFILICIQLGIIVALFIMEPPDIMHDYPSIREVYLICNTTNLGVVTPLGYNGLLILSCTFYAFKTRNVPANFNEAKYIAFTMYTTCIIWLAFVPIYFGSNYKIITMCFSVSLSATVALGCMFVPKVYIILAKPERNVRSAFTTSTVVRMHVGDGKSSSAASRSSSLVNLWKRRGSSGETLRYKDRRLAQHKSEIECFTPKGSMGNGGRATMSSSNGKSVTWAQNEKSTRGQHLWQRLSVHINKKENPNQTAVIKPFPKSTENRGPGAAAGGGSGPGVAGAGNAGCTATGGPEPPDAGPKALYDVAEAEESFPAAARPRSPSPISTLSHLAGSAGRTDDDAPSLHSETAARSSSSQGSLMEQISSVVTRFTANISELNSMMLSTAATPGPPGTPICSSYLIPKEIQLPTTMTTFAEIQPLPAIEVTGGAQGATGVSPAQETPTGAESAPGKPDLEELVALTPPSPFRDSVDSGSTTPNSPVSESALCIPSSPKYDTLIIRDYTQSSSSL
# Sequence of UniProt P26433 (whole entry, looked up): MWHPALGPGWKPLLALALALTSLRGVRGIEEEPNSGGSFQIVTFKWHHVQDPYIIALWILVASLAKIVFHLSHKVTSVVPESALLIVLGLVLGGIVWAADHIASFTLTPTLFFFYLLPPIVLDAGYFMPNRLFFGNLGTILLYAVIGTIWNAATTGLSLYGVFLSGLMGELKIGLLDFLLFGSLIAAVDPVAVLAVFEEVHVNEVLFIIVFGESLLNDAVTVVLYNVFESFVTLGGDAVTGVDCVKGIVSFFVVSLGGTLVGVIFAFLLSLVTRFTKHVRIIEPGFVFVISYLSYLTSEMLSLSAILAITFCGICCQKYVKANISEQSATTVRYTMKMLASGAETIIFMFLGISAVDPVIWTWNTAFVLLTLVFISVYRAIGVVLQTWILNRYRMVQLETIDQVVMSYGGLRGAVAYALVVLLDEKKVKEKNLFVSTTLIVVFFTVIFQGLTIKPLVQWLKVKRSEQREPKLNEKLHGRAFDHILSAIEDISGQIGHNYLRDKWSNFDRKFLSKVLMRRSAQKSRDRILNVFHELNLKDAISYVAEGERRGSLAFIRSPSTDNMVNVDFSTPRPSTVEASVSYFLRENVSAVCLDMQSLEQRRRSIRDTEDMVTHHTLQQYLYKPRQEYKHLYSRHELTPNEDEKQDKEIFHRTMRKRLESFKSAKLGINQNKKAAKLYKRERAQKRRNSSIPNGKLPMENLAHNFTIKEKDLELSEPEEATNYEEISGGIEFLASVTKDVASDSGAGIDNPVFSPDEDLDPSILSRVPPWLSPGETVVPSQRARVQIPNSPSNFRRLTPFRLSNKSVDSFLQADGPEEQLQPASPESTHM
# Sequence of UniProt P07237 (whole entry, looked up): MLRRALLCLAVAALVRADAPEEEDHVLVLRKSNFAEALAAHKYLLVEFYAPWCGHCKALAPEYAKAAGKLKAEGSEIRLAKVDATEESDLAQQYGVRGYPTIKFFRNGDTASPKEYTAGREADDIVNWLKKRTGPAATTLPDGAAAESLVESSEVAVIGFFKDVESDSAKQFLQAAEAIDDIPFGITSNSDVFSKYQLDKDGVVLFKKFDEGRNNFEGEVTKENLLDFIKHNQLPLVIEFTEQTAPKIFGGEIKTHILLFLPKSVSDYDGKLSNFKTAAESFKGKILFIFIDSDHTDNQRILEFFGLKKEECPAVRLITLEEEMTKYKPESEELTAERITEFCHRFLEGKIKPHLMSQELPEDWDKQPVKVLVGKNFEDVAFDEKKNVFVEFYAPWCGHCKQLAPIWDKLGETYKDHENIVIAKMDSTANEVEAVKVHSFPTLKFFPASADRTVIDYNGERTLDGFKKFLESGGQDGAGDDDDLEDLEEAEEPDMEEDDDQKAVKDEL
# Sequence of UniProt P10275 (whole entry, looked up): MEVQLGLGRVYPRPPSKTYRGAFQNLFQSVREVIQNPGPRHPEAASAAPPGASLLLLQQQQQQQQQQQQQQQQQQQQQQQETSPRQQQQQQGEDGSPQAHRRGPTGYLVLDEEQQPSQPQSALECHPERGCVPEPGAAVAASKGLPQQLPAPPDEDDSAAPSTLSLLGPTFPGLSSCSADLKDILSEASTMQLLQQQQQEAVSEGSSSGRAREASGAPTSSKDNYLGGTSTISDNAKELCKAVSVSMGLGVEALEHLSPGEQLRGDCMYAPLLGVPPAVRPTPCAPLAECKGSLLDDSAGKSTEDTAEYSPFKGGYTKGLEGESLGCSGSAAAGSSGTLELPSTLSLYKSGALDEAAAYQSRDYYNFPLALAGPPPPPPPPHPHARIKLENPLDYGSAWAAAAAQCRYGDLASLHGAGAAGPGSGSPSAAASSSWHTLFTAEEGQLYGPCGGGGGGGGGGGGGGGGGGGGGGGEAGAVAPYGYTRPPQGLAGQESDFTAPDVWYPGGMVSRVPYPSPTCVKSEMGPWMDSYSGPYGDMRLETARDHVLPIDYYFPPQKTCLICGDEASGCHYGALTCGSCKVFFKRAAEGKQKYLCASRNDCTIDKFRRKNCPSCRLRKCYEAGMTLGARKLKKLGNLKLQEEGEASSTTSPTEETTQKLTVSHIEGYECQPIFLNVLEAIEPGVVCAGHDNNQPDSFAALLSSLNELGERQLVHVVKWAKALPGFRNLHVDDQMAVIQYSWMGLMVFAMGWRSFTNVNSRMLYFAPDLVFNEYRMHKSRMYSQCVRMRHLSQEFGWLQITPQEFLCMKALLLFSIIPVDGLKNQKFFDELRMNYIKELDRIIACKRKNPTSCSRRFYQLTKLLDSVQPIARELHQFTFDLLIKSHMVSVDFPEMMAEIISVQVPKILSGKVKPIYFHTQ
# Sequence of UniProt Q8N8U2 (whole entry, looked up): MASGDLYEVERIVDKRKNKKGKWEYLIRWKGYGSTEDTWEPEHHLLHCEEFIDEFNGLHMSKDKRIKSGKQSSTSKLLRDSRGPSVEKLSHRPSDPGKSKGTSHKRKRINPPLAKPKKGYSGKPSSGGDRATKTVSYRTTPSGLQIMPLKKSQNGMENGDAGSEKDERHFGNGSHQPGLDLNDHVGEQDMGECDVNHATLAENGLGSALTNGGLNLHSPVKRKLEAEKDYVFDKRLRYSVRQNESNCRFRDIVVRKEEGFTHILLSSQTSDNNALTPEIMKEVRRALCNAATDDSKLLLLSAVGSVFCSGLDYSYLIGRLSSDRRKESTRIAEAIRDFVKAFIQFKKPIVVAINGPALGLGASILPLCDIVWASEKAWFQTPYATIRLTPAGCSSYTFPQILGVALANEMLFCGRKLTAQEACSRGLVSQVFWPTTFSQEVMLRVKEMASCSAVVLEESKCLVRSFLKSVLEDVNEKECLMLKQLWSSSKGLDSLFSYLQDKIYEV
# Sequence of UniProt Q9SQR3 (whole entry, looked up): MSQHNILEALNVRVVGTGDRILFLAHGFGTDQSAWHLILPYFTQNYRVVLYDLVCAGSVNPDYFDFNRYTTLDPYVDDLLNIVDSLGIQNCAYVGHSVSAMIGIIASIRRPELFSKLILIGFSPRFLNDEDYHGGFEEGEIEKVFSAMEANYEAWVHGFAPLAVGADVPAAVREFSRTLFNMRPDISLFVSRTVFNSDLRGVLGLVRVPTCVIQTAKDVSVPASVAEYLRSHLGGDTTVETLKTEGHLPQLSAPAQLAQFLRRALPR
SMILES,target,test,system,setting,IC50
COc1cccc(-c2nnc3ccc(N4CCN(C(=O)c5ccc(Br)o5)CC4)nn23)c1,"Muscarinic acetylcholine receptor M1 (Chrm1, Rattus norvegicus, UniProt P08482)","calcium mobilization, antagonist",CHO expressing rat M1,,3.59 µM
CC/C(=C\c1ccc(OCC(=O)NC(C(=O)N2CCSCC2)c2ccccc2)cc1)[N+](=O)[O-] (centres unmarked),"Papain (Carica papaya, UniProt P00784)","enzyme activity, inhibitor, fluorescence",,pH 5.5,7.3 µM
COc1cc2nccc(Oc3ccc(NC(=S)N[C@@H](C)CO)c(Cl)c3)c2cc1C(N)=O,FGFR1,,,,0.635 µM
NCc1ccc(NC(=O)c2ccc3ccccc3c2O)cc1,"Transmembrane protease serine 2 (TMPRSS2, Homo sapiens, UniProt O15393)","enzyme activity, inhibitor, fluorescence",,with preincubation,12.5 µM
COc1cc(/C=C/c2cc(/C=C/c3ccc(O)c(OC)c3)nc(N)n2)ccc1O,"Sterol carrier protein 2 (Helicoverpa armigera, UniProt K7NSY9)","displacement of 1,8-ANS, fluorescence",,"pH 7.0, 25 °C, together with: 1,8-ANS 15 µM",19.9 µM
C/C=C/C(=O)Nc1ccc2nc(NCCCCCN(C)C)nc(NCCCCCCN(C)C)c2c1,"Chromodomain Y-like protein 2, chromodomain (CDYL2, Homo sapiens, UniProt Q8N8U2)","methyl-lysine binding, TR-FRET",,,> 100 µM
CC(c1ccccc1)n1c(S(=O)(=O)O)nc2ccccc21 (centres unmarked),"Tryptophan 2,3-dioxygenase (TDO2, Homo sapiens, UniProt P48775)",inhibitor,,together with: L-tryptophan 400 µM,204 µM
CN(C)c1ccc(-c2oc3ccccc3c(=O)c2OCc2ccccc2)cc1,β-glucosidase,"enzyme activity, inhibitor",,,0.25 ± 0.12 µM
COC(=O)C1CN1S(=O)(=O)c1ccc(-c2ccccc2)cc1 (centres unmarked),"Protein disulfide-isomerase (P4HB, Homo sapiens, UniProt P07237)","enzyme activity, inhibitor, absorbance",,pH 7.6,0.45 µM
CCN(CC)CCNC(=O)c1cc2c(Oc3ccc(NC(=S)NC4CC4)c(Cl)c3)ccnc2cc1OC,FGFR1,,,,8.26 µM
CC[C@H](C)[C@H](NC(=O)[C@H](CO)NC(=O)[C@H](Cc1ccc(O)cc1)NC(=O)[C@H](CC(=O)O)NC(=O)[C@H](CO)NC(=O)[C@@H](NC(=O)[C@H](Cc1ccccc1)NC(=O)[C@@H](NC(=O)CNC(=O)[C@H](CCC(=O)O)NC(=O)[C@H](C)NC(=O)[C@@H](N)Cc1ccc(O)cc1)[C@@H](C)O)[C@@H](C)CC)C(=O)N[C@@H](C)C(=O)N[C@@H](CCSC)C(=O)N[C@@H](CC(=O)O)C(=O)N[C@@H](CCCCN)C(=O)N[C@H](C(=O)N[C@@H](CCCNC(=N)N)C(=O)N[C@@H](CCC(N)=O)C(=O)N[C@@H](CCC(N)=O)C(=O)N[C@@H](CC(=O)O)C(=O)N[C@@H](Cc1ccccc1)C(=O)N[C@H](C(=O)N[C@@H](CC(N)=O)C(=O)N[C@@H](Cc1c[nH]c2ccccc12)C(=O)N[C@@H](CC(C)C)C(=O)N[C@@H](CC(C)C)C(=O)N[C@@H](C)C(=O)N[C@@H](CCC(N)=O)C(=O)N[C@@H](CCCCN)C(=O)NCC(=O)N[C@@H](CCCCN)C(=O)N[C@@H](CCCCN)C(=O)N[C@@H](CC(N)=O)C(=O)N[C@@H](CC(=O)O)C(=O)N[C@@H](Cc1c[nH]c2ccccc12)C(=O)N[C@@H](CCCCN)C(=O)N[C@@H](Cc1c[nH]cn1)C(=O)N[C@@H](CC(N)=O)C(=O)N[C@@H](CC(C)C)C(=O)N[C@H](C(=O)N[C@@H](CCC(N)=O)C(=O)O)[C@@H](C)O)C(C)C)[C@@H](C)CC,"Gastric inhibitory polypeptide receptor (GIPR, Homo sapiens, UniProt P48546)","ligand displacement in cells, radioligand",,,0.00126 µM
O=C1NC2=C(C(=O)N(c3ccc(Cl)cc3)C2)C(c2ccc(O)cc2)N1 (centres unmarked),"Intestinal-type alkaline phosphatase (ALPI, Bos taurus, UniProt P19111)","enzyme activity, inhibitor, absorbance",,pH 9.5,6.56 µM
CCCN(CC(=O)N(CCC)CC(=O)N(CCC)CC(=O)N(CCC)CC(=O)N(CCC)CC(=O)N(CCC)CC(=O)N(CCC)CC(=O)N(CCC)CC(=O)N(CC(N)=O)Cc1cn(CCCNC(=O)CCCOc2cccc(-c3nc4ccc(-c5nc6ccc(N7CCN(C)CC7)cc6[nH]5)cc4[nH]3)c2)nn1)C(=O)CNCc1cn(CCCNC(=O)CCCOc2cccc(-c3nc4ccc(-c5nc6ccc(N7CCN(C)CC7)cc6[nH]5)cc4[nH]3)c2)nn1,MBNL1–r(CUG)109 complex,MBNL1 displacement,,together with: bulk yeast tRNA competitor,> 30 µM
C[C@]12CCC(=O)C=C1CCC1C2CC[C@]2(C)C(c3cccnc3)=CCC12 (some centres unmarked),"Androgen receptor (AR, Homo sapiens, UniProt P10275)",binding,LAPC4,"wild-type receptor, together with: [3H]-R1881 0.1 nM",0.0079 µM
Cc1cc(C)c(CNC(=O)c2c(O)c(O)cc3c(O)c(-c4c(C)cc5c(C(=O)NCc6c(C)cc(C)cc6C)c(O)c(O)cc5c4O)c(C)cc23)c(C)c1,"Bcl-2-like protein 2 (BCL2L2, Homo sapiens, UniProt Q92843)","ligand displacement, FP",,,~1 µM
Cc1ccc(C(=O)Nc2ccc(CN)cc2)c(O)c1,"Transmembrane protease serine 11D (TMPRSS11D, Homo sapiens, UniProt O60235)","enzyme activity, inhibitor",,"15 min preincubation, together with: Boc-VPR-AMC 100 µM",18.9 ± 1 µM
CNC(=O)c1ccc2c(c1)nc(-c1cn(CC(=O)c3ccccc3)c3ccccc13)n2CC1CCCCN1C(=O)OC(C)(C)C (centres unmarked),"Epithelial discoidin domain-containing receptor 1 (DDR1, Homo sapiens, UniProt Q08345)",cell-free assay,,,3.6 µM
O=C(O)[C@@H]1Cc2c([nH]c3ccccc23)[C@@H](c2ccc(F)cc2Cl)N1,MEP cytidylyltransferase IspD,"enzyme activity, inhibitor, fluorimetric pyrophosphate",,60 nM enzyme,0.1 ± 0.01 µM
Fc1ccc(/C=C/N=c2\oc3ccccc3cc2-c2ccccc2)cc1,"Prostaglandin G/H synthase 2 (PTGS2, Homo sapiens, UniProt P35354)","enzyme activity, inhibitor",,,0.014 µM
O=c1c(OCc2ccccc2)c(-c2cccs2)oc2ccccc12,β-glucosidase,"enzyme activity, inhibitor",,,0.42 ± 0.08 µM
COc1cc2nccc(Oc3cc(F)c(NC(=S)NC4CC4)c(F)c3)c2cc1C(N)=O,FGFR1,,,,0.541 µM
CCCN(CC(=O)N(CCC)CC(=O)N(CCC)CC(=O)N(CC(N)=O)Cc1cn(CCCNC(=O)CCCOc2cccc(-c3nc4ccc(-c5nc6ccc(N7CCN(C)CC7)cc6[nH]5)cc4[nH]3)c2)nn1)C(=O)CNCc1cn(CCCNC(=O)CCCOc2cccc(-c3nc4ccc(-c5nc6ccc(N7CCN(C)CC7)cc6[nH]5)cc4[nH]3)c2)nn1,MBNL1–r(CUG)109 complex,MBNL1 displacement,,together with: bulk yeast tRNA competitor,18 ± 4 µM
COC(=O)[C@]1(O)C[C@H](CP(=O)(OC(C)C)OC(C)C)[C@@H](O)[C@H](O)C1,"3-dehydroquinate synthase, chloroplastic (DHQS, Arabidopsis thaliana, UniProt Q8VYV7)","enzyme activity, inhibitor, malachite green phosphate release",,29 °C,148 µM
CN1Cc2c(Cl)cc(Cl)cc2C(c2cccc(S(=O)(=O)NCCNC(=O)C(O)C(O)C(=O)NCCNS(=O)(=O)c3cccc(C4CN(C)Cc5c(Cl)cc(Cl)cc54)c3)c2)C1 (centres unmarked),"Sodium/hydrogen exchanger 3 (Rattus norvegicus, UniProt P26433)","intracellular pH recovery, inhibitor, pH-sensitive dye","opossum kidney cells, transfected",,0.501 µM
Cc1ccccc1-c1nc(Nc2nc3ccccc3o2)ncc1C#N,Grm5,"calcium signal, antagonist",,,0.403 µM
CCc1cccc2c(C(=O)COC(=O)C34CC5CC(CC(Br)(C5)C3)C4)c[nH]c12,"D14 (Arabidopsis thaliana, UniProt Q9SQR3)","enzyme activity, inhibitor",,,2.4 µM
N#Cc1cnc(Nc2nc3ccccc3o2)nc1-c1ccccc1Cl,Grm5,"calcium signal, antagonist",,,0.516 µM
CO[C@H]1O[C@H](CNC(=O)c2ccc3ccccc3c2)[C@@H](O)[C@H](O)[C@@H]1O,"Fucose-binding lectin PA-IIL (lecB, Pseudomonas aeruginosa, UniProt Q9HYN5)","ligand displacement, FP",,,31 µM
O=C(O)[C@@H]1Cc2c([nH]c3ccccc23)[C@@H](c2ccc(Br)cc2Cl)N1,MEP cytidylyltransferase IspD,"enzyme activity, inhibitor, fluorimetric pyrophosphate",,,0.034 ± 0.011 µM

# Repeated from above:
SMILES,target,test,system,setting,IC50
CNC(=O)c1ccc2c(c1)nc(-c1cn(CC(=O)c3ccccc3)c3ccccc13)n2CC1CCCCN1C(=O)OC(C)(C)C (centres unmarked),"Epithelial discoidin domain-containing receptor 1 (DDR1, Homo sapiens, UniProt Q08345)",cell-free assay,,,3.6 µM
CC(c1ccccc1)n1c(S(=O)(=O)O)nc2ccccc21 (centres unmarked),"Tryptophan 2,3-dioxygenase (TDO2, Homo sapiens, UniProt P48775)",inhibitor,,together with: L-tryptophan 400 µM,204 µM
CN1Cc2c(Cl)cc(Cl)cc2C(c2cccc(S(=O)(=O)NCCNC(=O)C(O)C(O)C(=O)NCCNS(=O)(=O)c3cccc(C4CN(C)Cc5c(Cl)cc(Cl)cc54)c3)c2)C1 (centres unmarked),"Sodium/hydrogen exchanger 3 (Rattus norvegicus, UniProt P26433)","intracellular pH recovery, inhibitor, pH-sensitive dye","opossum kidney cells, transfected",,0.501 µM
Cc1ccccc1-c1nc(Nc2nc3ccccc3o2)ncc1C#N,Grm5,"calcium signal, antagonist",,,0.403 µM
CC/C(=C\c1ccc(OCC(=O)NC(C(=O)N2CCSCC2)c2ccccc2)cc1)[N+](=O)[O-] (centres unmarked),"Papain (Carica papaya, UniProt P00784)","enzyme activity, inhibitor, fluorescence",,pH 5.5,7.3 µM
